Experimental data gathered from unrelated publications.
A part holds a random share of what one study measured.

Set 1
Target: Histone acetyltransferase KAT6A, both winged helices, GST fusion (KAT6A, Homo sapiens, UniProt Q92794, residues 1-181)
Method: protein binding microarray
Molecule type: double-stranded DNA, one strand shown
Matrix: in vitro
Tested at: not given
Setting: 8-mer, flanks averaged, mean of 2 arrays, mostly near background
Relative to: not given
Reading: higher = stronger binding
Residues (chain): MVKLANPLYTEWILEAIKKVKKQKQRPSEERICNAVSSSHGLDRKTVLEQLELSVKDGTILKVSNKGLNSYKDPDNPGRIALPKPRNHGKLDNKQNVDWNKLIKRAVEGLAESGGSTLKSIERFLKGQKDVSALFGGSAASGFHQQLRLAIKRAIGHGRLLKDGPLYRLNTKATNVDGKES
Sequence | E-score
CCACATGC | 0.0833
AGAGAAAA | -0.00411
CAAGTGTC | -0.0697
ACGACGCA | 0.0219
AAATGGCA | -0.214

Set 2
Target: Sal-like protein 4, full length isoform A (SALL4, Homo sapiens, UniProt Q9UJQ4, residues 1-1053)
UniProt Q9UJQ4, sequence (whole entry, looked up): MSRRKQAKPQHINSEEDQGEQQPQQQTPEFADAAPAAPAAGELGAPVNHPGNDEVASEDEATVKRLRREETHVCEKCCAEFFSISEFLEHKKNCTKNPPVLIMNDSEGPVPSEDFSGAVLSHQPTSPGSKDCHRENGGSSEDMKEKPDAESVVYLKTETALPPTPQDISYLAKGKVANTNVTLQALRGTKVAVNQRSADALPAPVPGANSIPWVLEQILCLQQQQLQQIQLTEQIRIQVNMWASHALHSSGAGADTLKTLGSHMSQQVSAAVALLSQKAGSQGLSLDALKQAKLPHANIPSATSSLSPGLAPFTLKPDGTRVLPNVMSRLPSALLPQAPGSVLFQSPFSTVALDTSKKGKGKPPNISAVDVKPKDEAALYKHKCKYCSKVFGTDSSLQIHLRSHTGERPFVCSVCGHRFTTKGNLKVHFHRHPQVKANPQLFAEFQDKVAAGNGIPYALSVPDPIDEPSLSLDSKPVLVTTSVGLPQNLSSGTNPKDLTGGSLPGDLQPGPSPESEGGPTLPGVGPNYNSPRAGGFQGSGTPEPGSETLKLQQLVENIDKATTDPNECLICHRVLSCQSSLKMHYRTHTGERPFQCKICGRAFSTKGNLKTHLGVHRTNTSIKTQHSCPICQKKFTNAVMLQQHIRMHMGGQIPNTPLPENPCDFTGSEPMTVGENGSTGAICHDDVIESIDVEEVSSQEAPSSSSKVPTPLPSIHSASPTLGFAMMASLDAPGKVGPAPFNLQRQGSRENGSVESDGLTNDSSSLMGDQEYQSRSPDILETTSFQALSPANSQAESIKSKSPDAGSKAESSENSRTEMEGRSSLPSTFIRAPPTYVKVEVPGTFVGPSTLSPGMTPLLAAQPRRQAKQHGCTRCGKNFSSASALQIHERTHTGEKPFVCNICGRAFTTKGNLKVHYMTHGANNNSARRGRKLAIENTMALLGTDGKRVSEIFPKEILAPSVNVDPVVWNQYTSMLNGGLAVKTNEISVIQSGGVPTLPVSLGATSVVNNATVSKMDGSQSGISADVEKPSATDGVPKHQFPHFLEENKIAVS
Method: universal PBM
Molecule type: double-stranded DNA, one strand shown
Matrix: in vitro
Tested at: 600 nM
Setting: 8-mer, flanks averaged, mean of replicates
Reading: higher = stronger binding
Sequence | E-score
GGATGTCA | 0.00805
CATTATGC | 0.229
AGACGCAA | 0.0317

Other studies, line by line
CBF1 full length, N-terminal tag: Centromere-binding protein 1, full length, N-terminal tag (CBF1, Saccharomyces cerevisiae, UniProt P17106, residues 1-351)
UniProt P17106, sequence (whole entry, looked up): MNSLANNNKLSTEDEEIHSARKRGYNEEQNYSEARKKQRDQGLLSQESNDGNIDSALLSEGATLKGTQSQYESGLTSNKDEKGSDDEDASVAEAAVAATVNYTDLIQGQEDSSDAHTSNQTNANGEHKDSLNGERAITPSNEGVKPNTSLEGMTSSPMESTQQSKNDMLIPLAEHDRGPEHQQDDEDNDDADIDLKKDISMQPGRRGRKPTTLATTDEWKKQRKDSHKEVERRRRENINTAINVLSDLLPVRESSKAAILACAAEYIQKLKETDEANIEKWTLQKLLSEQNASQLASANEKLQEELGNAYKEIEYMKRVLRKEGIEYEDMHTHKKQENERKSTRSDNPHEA
Substance | target | test | test system | setting | how to read | measurement | result
CTAGGAATAATCATCATCACCATTATCACTGTTTTCGTCTTGATTCGCTTGACGCTGCTG | CBF1 full length, N-terminal tag | protein-binding microarray | double-stranded DNA, one strand shown, in vitro | 0.8 µM, whole 60-bp probe, no competitor | higher = stronger binding | fluorescence intensity | 525 a.u.
PhoQ, residues 284 288 289 292 302 303 SMYGEC | PhoP, residues 12 14 15 18 19 NIMAP (Escherichia coli, UniProt P23836) | Sort-seq, item: YFP reporter | E. coli | PhoQ-PhoP variant library, with: 10 µM Mg2+ | relative to: high Mg2+ state, higher = stronger signaling | fold induction | 0.412
GAAATGGTGCAAGTTCACGTCAGTCAGTTGTTCTAGGTCTTGATTCGCTTGACGCTGCTG | CBF1 full length, N-terminal tag | protein-binding microarray | double-stranded DNA, one strand shown, in vitro | 0.8 µM, whole 60-bp probe, no competitor | higher = stronger binding | fluorescence intensity | 561 a.u.

For quick reference, copied from above (set 2):
Sequence | E-score
CATTATGC | 0.229
AGACGCAA | 0.0317
